# Assay results pooled from the literature.
# Every numbered part comes from another study and shows a few of its results, in no order. Substitutions count along the parent as printed.

# Study 1 — method: RNA Bind-n-Seq; form: RNA; matrix: in vitro; tested at: 365 nM; baseline: no-protein control; direction: higher = stronger binding
# Target: RNA binding protein fox-1 homolog 2, RRM domain, GST-SBP tag (RBFOX2, Homo sapiens, UniProt O43251-10, residues 100-194)
# Notes: natural RNA segment, single round, ends assumed
# All sequences stand within: GGGAGUUCUACAGUCCGACGAUC … UGGAAUUCUCGGGUGCCAA
# Residues (chain): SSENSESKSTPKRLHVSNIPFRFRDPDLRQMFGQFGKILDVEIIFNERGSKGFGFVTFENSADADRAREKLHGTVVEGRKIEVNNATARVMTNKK
Strand,RBNS enrichment (R)
CUUGCAGUACUGCCUGCCGUUGGUAAGCAGUGGCAUCCGAAGGCAGGAACCCUGAUGAGCCCUCACGUGCCUGUCCUUGACCAAGGUGACUUUUAUGCUGUGGCAACUGU,0.41
CCUUUAUUGCAGUUCAAAUCCUCACCAUCCACAGCAAGAUGAAUUUUAUCAGCCAUGUUUGGUUGUAAAUGCUCGUGUGAUUUCCUACAGAAAUACUGCUCUGAAUAUUU,0.49
UCCUGUGCUGUGUCUGUACUCAGCCAUGUGUGUUUUGUCUGCUGUCUGUCUUCUGAGGCUUAGCAUCUGUCAGGGCUGGGGUUGGUUCAGCCCUUGGUACUCCAGAUGUG,0.628
UCUUUUGAUAAAAAGUAACAAAAAUUUAAUGCAGAUCAAAGACCAAGGCUUGUAACCAAAACAAGCAAAAAGAAACUUUAGCUGUUUAACUAUCACCUCUCUAAUUUAAA,0.553
UUCUCCUUAGUCUUCCUGACUCAACCCGUGGUCUCUGUCCCGCUCCCCCUCUCUGUGGCAGUUUCAUAUUUGCUAAUACGAAUUUGCUCAUUAAACAUUUUGUUGUAUUU,0.783
GGCUCACACUCCCAGCCUCCGCCACGCCACGAGGGACCUGUGACCCAGUGUCAUUCAGUAUUUUGUUGAGAAGACAUUUUUAUCCUAAUGAUUUGAAAACUAAGUUCAUG,0.266
CUCCUUGCCUGGCCUUAGCCGUUUCUUGGAGCAUCACUAAUGGCCCAGCCCCCAGGCACAAGGGGCAGAGAGACAGGCAGUCGCCCCAGAUAGGCUCCGGGGAAGUCCAU,0.255
CUUGGGCGAGUGUGGCGCCAACAAGCCUGAGAUUCAAACGCUUUCCAUUUAAGCAAACCUCUUCUUGUUUUUAUACUUCAUUUUGUUUCCCAUGUUGAUGAAAGUACUGC,0.343

# Study 2 — target: CCNE2, cyclin fold, Cln2 fusion (human); method: yeast growth competition, sequencing; matrix: yeast; notes: weak parent motif; baseline: not given; direction: higher = stronger binding
# Starting sequence: SAMHD1 docking peptide (human); ASKSRVQLFKDDP
Variant,normalised enrichment score
ASKSRVQLHKDDP [F9H],0.0892
ASKSRVQLFKDAP [D12A],0.325
ASKSRVQNFKDDP [L8N],-0.0397
ASKSRVQSFKDDP [L8S],-0.163
ASKSDVQLFKDDP [R5D],-0.221
ASKSRVQLFKEDP [D11E],0.153
ASKHRVQLFKDDP [S4H],0.384
ASKSRVQLFKGDP [D11G],0.623
ASHSRVQLFKDDP [K3H],0.234
ASKSEVQLFKDDP [R5E],-0.195
ASKSRVQLFKDYP [D12Y],0.88
ASKSNVQLFKDDP [R5N],-0.468
ASKSRVQLFKADP [D11A],0.574
ASKSRVQLFKDSP [D12S],0.32
ASQSRVQLFKDDP [K3Q],-0.0629
ASKSRVTLFKDDP [Q7T],0.154
ASKSRVQLFNDDP [K10N],0.157
ASKSRVQLFKDEP [D12E],0.456
ASWSRVQLFKDDP [K3W],-0.0339
ASKSRVQLFKDVP [D12V],0.823
ASKSRVQLFADDP [K10A],-0.0129
AMKSRVQLFKDDP [S2M],0.00249
ASKSRVVLFKDDP [Q7V],0.3
ASKSRVYLFKDDP [Q7Y],0.328
ASKSRRQLFKDDP [V6R],1.68

# Study 3 — method: protein binding microarray; form: double-stranded DNA, one strand shown; matrix: in vitro; tested at: not given; baseline: not given; direction: higher = stronger binding
# Target: Histone acetyltransferase KAT6A, winged helix 1, GST fusion (KAT6A, Homo sapiens, UniProt Q92794, residues 1-85)
# Notes: 8-mer, flanks averaged, mean of 2 arrays, mostly near background
# Construct (chain): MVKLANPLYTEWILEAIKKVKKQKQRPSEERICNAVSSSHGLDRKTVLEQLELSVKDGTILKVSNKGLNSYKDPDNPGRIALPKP
Strand,E-score
CTTATCAA,-0.192
ACAACCGG,0.0794
ACAATCTA,-0.103
AAATAAAG,-0.246
ATGAGCAG,-0.255
CACTTAAC,-0.277
CCCGTACG,0.441
CTCGCAGA,-0.152
CGGCGAAG,0.328
AATCGGGC,0.0805
CTCGTAAG,0.00991
AGCCCTTG,-0.106
CTTACGTC,-0.095
ATTCGAAT,-0.0816
ACGTTTAT,-0.0851
ACATTTAG,-0.191
GTCGTGTA,-0.0959

# Study 4 — method: RNA Bind-n-Seq; form: RNA; matrix: in vitro; tested at: 1 µM; notes: whole 134-nt RNA, ends assumed; added: 150 mM KCl; baseline: input library; direction: higher = stronger binding
# Target: Ras GTPase-activating protein-binding protein 1, C-terminal RGG region (G3BP1, Homo sapiens, UniProt Q13283)
# UniProt Q13283, sequence (whole entry, looked up): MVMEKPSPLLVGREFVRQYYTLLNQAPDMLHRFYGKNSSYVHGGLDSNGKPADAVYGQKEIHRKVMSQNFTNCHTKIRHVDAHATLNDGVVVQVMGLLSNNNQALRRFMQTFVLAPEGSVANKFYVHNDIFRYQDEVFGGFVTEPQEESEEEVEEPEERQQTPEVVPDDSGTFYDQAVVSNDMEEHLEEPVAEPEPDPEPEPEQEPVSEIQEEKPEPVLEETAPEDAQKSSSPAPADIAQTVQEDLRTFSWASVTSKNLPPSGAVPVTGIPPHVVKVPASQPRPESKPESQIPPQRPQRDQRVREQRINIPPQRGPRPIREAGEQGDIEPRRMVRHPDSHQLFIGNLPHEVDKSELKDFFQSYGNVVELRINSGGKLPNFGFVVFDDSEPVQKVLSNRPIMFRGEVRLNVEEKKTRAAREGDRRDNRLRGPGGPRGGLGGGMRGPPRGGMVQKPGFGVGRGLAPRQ
# All sequences stand within: GGGAGUUCUACAGUCCGACGAUC … UGGAAUUCUCGGGUGUCAAGG
Strand,log2 enrichment
CACAGACACCACGCACCCACACAGACACAGAGGGAAGGGGUUGGGAUGGGGACAGGGUGCACAGCAGGGCGGGGUAGGACCCCAGCCCCU,-0.384
CAAGUCCUGUGCUACACAUCGUAUGUACCGAAUCGGGGCCCGGGGCCCGGCCCGGGAAAGUAUUAUGUUACGCCGUUCGGAUCUGCACUU,-1.76
UCAAGUCCUGUGCUACACAUCGUAUGUACCGAAUCGGGGUGGGGUGGGGAGGGGAAAGUAUUAUGUUACGCCGUUCGGAUCUGCACUUCC,2.82
CAAGUCCUGUGCUACACAUCGUAUGUACCGAAUCGGGGUUUGGGGUGGGGAGGGGAAAGUAUUAUGUUACGCCGUUCGGAUCUGCACUUC,2.64
GCAGGAAGUAAAAACAAAUGGAAAUGCUUCGGAUAGUGGCAGGGGUGGGGGUUGCUAAGGAAAGGAAAGGAUGGGAGUGGGUAAAGAGUU,1.47
UGGGGGGUGGAUUUUGUUUAUUUUUUUAGCUCAUUUCCAGGGGUGGGAAUUUUUUUUUAAUAUGUGUCAUGAAUAAAGUUGUUUUUGAAA,3.88
UGGGAGGUGGAUUUUGUUUAUUGUUUUAGCUCAUUUCCAGGGGUGGGAAUUUUUUUUUAAUAUGUGUCAUGAAUAAAGUUGUUUUUGAAA,3.1
UCCUCAAGUCCUGUGCUACACAUCGUAUGUACCGAAUCGGAGGGGAGGGAGGAAAGUAUUAUGUUACGCCGUUCGGAUCUGCACUUCCAG,-0.636
GCAGGAAGUAAAAACAAAUGGAAAUGCUUCGGAUAGUGGCAGGGGUGGGGGUUGCUAAGGAAAGGGUGUGAUGGGAGUGGGUAAAGAGUU,2.22

# Repeated from above (study 3):
Strand,E-score
CCCGTACG,0.441
CTCGCAGA,-0.152
CGGCGAAG,0.328
AATCGGGC,0.0805
CTCGTAAG,0.00991
AGCCCTTG,-0.106
CTTACGTC,-0.095
ATTCGAAT,-0.0816
ACGTTTAT,-0.0851
